Experimental data collected from several papers.
Numbered parts are unrelated; each lists some results of a single study. Substitutions count along the parent as printed.

Sample 1
Target: Histone acetyltransferase KAT6A, winged helix 2, GST fusion (KAT6A, Homo sapiens, UniProt Q92794, residues 85-181)
Technique: protein binding microarray
Form: double-stranded DNA, one strand shown
Matrix: in vitro
Tested at: not given
Notes: 8-mer, flanks averaged, mean of 2 arrays, mostly near background
Relative to: not given
Reading: higher = stronger binding
Target sequence (chain): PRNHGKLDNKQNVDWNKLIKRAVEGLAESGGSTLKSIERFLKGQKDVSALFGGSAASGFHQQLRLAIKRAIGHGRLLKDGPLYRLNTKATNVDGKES
`ACACATGT` has an E-score of -0.203.
For `AAGGGGTC`, the E-score was -0.209.
`ACATGGAG` gave an E-score of -0.121.
`ATGCTTAG` gave an E-score of 0.098.
With `ATGCTGAC` the E-score was 0.0761.
The E-score of `CCCAACGC` is reported as 0.146.
The E-score of `TAGAACCA` is reported as -0.264.
`AACCGTGC` has an E-score of 0.13.
With `GGCCCAGA` the E-score was -0.0121.
`GCTAGGAC` has an E-score of -0.118.
The E-score of `CCTCATCC` is reported as -0.029.
`AACAGGGC` gave an E-score of 0.076.
With `CGGCCGAA` the E-score was 0.227.
The E-score of `GAACATAA` is reported as -0.0689.
`GAACAGCA` gave an E-score of 0.0451.
`CGGTACTC` has an E-score of -0.0217.
`CTACCGGA` gave an E-score of -0.0926.
The E-score of `GTGGGCAA` is reported as -0.117.

Sample 2
Target: RNA binding protein fox-1 homolog 2, RRM domain, GST-SBP tag (RBFOX2, Homo sapiens, UniProt O43251-10, residues 100-194)
Technique: RNA Bind-n-Seq
Form: RNA
Matrix: in vitro
Tested at: 365 nM
Notes: natural RNA segment, single round, ends assumed
Relative to: no-protein control
Reading: higher = stronger binding
All sequences stand within: GGGAGUUCUACAGUCCGACGAUC … UGGAAUUCUCGGGUGCCAA
Construct (chain): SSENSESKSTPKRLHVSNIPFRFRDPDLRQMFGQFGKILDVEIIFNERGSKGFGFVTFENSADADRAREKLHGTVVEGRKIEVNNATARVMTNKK
`GUAUUUAGAAAAGUCUUAAGUAUUGUGCUUUGUAAAGAAGAUGAUUAAAAUGAAAUUUUGUGAGAAUGUUUUGUUCAAAGUUGUCAUGGUCCAAGAGGAAUGAUUUUUUU`: “RBNS enrichment (R)” 1.71.
`UAAAAGCCAGAGCAUUAAGCUUACACAGACUACUUUCUAUGCAAGACAGAGAUAUGGACUAGGUUACAGGAAACGUGCACCGUUGGCUCCACAGACAAGAAGUGCAUUGC` — result for “RBNS enrichment (R)”: 0.222.
`UUCCCACCCAGGAAAGGAGGACCAGUCAGGAUGAGGCCCCGCCUUUUCCCCCACCCUCCCAUGAGACUGCCCUGCCCAGGUAUCCUGGGGGAAGAGGAGAUGUGAUCAGG`: “RBNS enrichment (R)” 0.513.
`UCCACCUGCUGCCCAAGGGAUGUGAGCUUGGACUUCGGGGCACUCUCAGGGGGCUGUGUCUGAGUGACGGGUGUAUGUCUGUCUCAGAGAAUGUGUGUCUGUGGCCCCAA` — result for “RBNS enrichment (R)”: 5.1.
For `CUGAGUACAGCUUAGAUGUUAGCUGGAGAGGAAGAUGGUGUGGCAGGUCUCUGGUCUCCCUACCCCUGCUGUGCUGAUCACAGUCCCUCCCAGUUACCACUAGGACAUUC`, “RBNS enrichment (R)” read 0.42.
`CACAAGGUAUCAGAAGUACUUUCAGUCUACAGGUCUCUAUGUCCACAUAACUAAGGAAUGCCUAACUAAUGGAAACUUAAGUUCCUUCUAGCCAUUAAAACAGAGAGAAG` — result for “RBNS enrichment (R)”: 0.224.
`GGCCUCCAGGACAUCUGCACCCCCUCCCCACCUCCACGGACCUCGGACCUCCAGGCGGCUCAGUGCUGCCUGCGGCCCAGCUAAGGGGCCUGGCCACUGGGUGCCACCCA`: “RBNS enrichment (R)” 0.24.
`GGCCCGACCUAUCUAGCCCUCUCUGCUGUUACCUGCCAUGCCUUGCCCCUCUCCUUCCUGGCUACUUAAGGUCAGGAAGGAAAAAGGGGACCUCUGUUUCUUCGGCUGUU` — result for “RBNS enrichment (R)”: 0.331.
`GCAUCCGGGUCACUCCUUCUCCGCUUUUUCUUGCAGAUGGGCCUAGGCCGGUGUCGGUUCUGUUUCUCCCCUUGGCUGCCUGUACGCCCACAGCCUUCUGGCUGCGACAU` — result for “RBNS enrichment (R)”: 0.221.
`GUUCAGGCCCACUGAAGAAGUGUGCAGAAGUCUUGGAAGUCUGUCCCCGCCCUGAAGAGCUUCAGAAAUAGUGGGAGUUUCCCUAAAGCCUUUCAUAGCCUUAAUUCAUG` — result for “RBNS enrichment (R)”: 0.482.
Under “RBNS enrichment (R)”, `CCCUACCGUGGUGGAUUCCCAGCUGGCAGAUGGCCAAGCUCAGGGCCACUGUGAUCUUGGCAGCCCUCCUGUUUAAGGGGCUGCCACCCUCCCUUACAGGGUGGUGUAUA` is recorded as 0.288.
`GUUCAUUGGAAAUCUUCUUCCCUACAGCAGUAAGCAAAAAUUAGCAAAGAGAUAGUCUAAAUGGCCUCUCAGCUUGGUAUGUGAAAAUGAGAUCACAUACUUUUUAAAUC` — result for “RBNS enrichment (R)”: 0.513.

Sample 3
Target: RING finger protein unkempt homolog, zinc fingers 1-6, SBP tag (UNK, Homo sapiens, UniProt Q9C0B0, residues 30-357)
Sequence of UniProt Q9C0B0 (30-357, looked up): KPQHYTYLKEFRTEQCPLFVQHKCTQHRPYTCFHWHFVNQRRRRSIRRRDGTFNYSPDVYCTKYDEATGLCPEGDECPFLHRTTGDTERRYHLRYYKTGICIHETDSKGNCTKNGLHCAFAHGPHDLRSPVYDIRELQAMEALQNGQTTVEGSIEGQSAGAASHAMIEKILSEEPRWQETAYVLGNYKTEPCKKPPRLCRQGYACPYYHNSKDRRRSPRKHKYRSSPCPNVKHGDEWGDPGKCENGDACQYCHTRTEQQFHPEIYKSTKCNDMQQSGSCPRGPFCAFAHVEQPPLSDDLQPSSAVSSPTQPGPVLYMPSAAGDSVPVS
Technique: RNA Bind-n-Seq
Form: RNA
Matrix: in vitro
Tested at: 100 nM
Notes: RNA with constant flanks, vertebrate orthologous sites, ends assumed
Relative to: input RNA pool
Reading: higher = stronger binding
All sequences stand within: GGGAGUUCUACAGUCCGACGAUC … CAACAGAGGAUUGAGCAUCA
With `AAAUUCCCCCAUUGUCACUGAGAACCACCAAAUCUGACUUUUACAUUUGGUCUCAGAAUUUAGGUUCCUGCCCUGUUGGUUUUUUUUUUUUUUUUUUAAACAGUUUUCAAAAGUUCUUAA` the bound/input enrichment was 1.53 ratio.
`UAGUUGGAAGAAUAAUAUAGGAGGUUGUGGUCAAAAAGUAGGAGUUGUUGGGGAGAGAAGUUAACAAAUAUCAAGAACCAGGUGGCCAAAGAAUGGAGCUGUAGAUAUUGAAAUUCAUGU` has a bound/input enrichment of 0.598 ratio.
With `AGCAACUCAAGGAUUCAGGACUGGUUUUACACAUGUCCCAAGCAGAUAUGGAACUGGCACUCGAGGUCAACCCCAGCCAUAAUAAACUCUAUUUUGCGUUAUUUAUUGUACAUAAGGGUA` the bound/input enrichment was 0.34 ratio.
`CCUAUAAUAAUGAGAACCGACAGGAAUUUUUUUAUUUCUCAUUUUCCCCUGAGGUAUAUUCAGUCCUUUUCCCCAGGCAGAUCAUUCUGAGUGCGUGUGUGUGUGUGUGUGCACAUGUUA` gave a bound/input enrichment of 0.611 ratio.
The bound/input enrichment of `CAUGUCCUUAUUACUGUGAUAUUAAAACAGACACAGUACUCAUUUCCCCCCCAGUGAUUUUUGUAAUUGCCUAGGAAGAUCUUUCUCUUACCUGUUAUUUAUCAAUUUUUCCCAGUAUUU` is reported as 1.05 ratio.
The bound/input enrichment of `GUUGUGACCCAUUUAACAUACACAAAAAACUAGCAAAAAAGAAUUUGCAUGUAAUUGACUUAGAUGACGCCACUUUUCUGAGUGCAAAAUUUGGAAGACAGCUUGUACCUGGUUGGAAGC` is reported as 1.08 ratio.
With `UUCUUUUAUUUUGCACAUGACAGUGUUAUGUUGAGGACCUUCUGGGGUGGGCAAGUGCCAUGGCAGUGGCACCCAGGUGCCUGGCUGCAGUGCCCACCACUCCUGGCACCUUUUCCAUGU` the bound/input enrichment was 0.297 ratio.
For `UACCCUCCCAGGACCCAGUGGUGCGGCCUGGGCCCACUGGCCACAUCAGCCAGGCCGUUUCAGCCUUUUUUUUUCUUUUUUUUUUUUUUUUAACAGUGCCCUUAUUAUUAUCCUAUACAU`, the bound/input enrichment was 1.68 ratio.
For `UUUUUUUCUUUUUUUUUUAAUUUAAUUUUUCCUUUUGGGGGUAAAGUUUGCUCUACCAAAUAGUGAUUGUAACAAAUUGAUCUGUUUUGGAUGUUGCUAUAGUGACAUGCAGUUAUAUAU`, the bound/input enrichment was 1.48 ratio.
For `GGUUAAUGUGUUAUUUAUUGAAUAUUGUUUGUGCUAAGCAUUGUGUUAGAUUUAAAAAAUUAGUGGAUUGACUCCACUUUGUUGUGUUGUUUUCAUUGUUGAAAAUAAAUAUAACUUUGU`, the bound/input enrichment was 1.03 ratio.
`AGCUUCUGGCGACAUUUGGCCUGGCCUUUCAGCAUAUGAUAACAGUCCAAGGUCACCCCAUAGUCCCUCUAUUGCCUCCCCACCUAGUCAGAGUUCAUCUUGCUCUGAUGCCCCUUUGCU` has a bound/input enrichment of 0.688 ratio.

Sample 4
Target: Interferon regulatory factor 5, full length, phosphomimetic (IRF5, Homo sapiens, UniProt Q13568-2, residues 1-514, S451D/S453D/S456D/S462D)
Technique: protein-binding microarray
Form: double-stranded DNA, one strand shown
Matrix: in vitro
Tested at: 940 nM top
Notes: 60-bp whole probe
Together with: salmon DNA 0.4 mg/ml
Relative to: random background probes
Reading: higher = stronger binding
All sequences stand within: GCCTAGCAC … GTCTTGATTCGCTTGACGCTGCTG
`AGAGGCGGGAGGGGGCGGGGGTGCTAG`: “fitted relative affinity” 3.52 z-score.
`TTAGGTTCCGGTTACGGTTAGTGCTAG`: “fitted relative affinity” 4.06 z-score.
For `TTAAGTTCCCTTTTCCTTTAGTGCTAG`, “fitted relative affinity” read 1.02 z-score.
`TCAGATTTCGATTACAAACTGTGCTAG`: “fitted relative affinity” 1.39 z-score.
`GACGATTTCAGTTTTGAGACGTGCTAG` — result for “fitted relative affinity”: 0.5 z-score.
`GACGGTTTCGACTTTCGGGATGTGCTA` — result for “fitted relative affinity”: 7.25 z-score.
For `GACGATTTCAGTTACGAGACGTGCTAG`, “fitted relative affinity” read 0.311 z-score.
For `TCATTTCTCTGGTTCTTACTGTGCTAG`, “fitted relative affinity” read 1.58 z-score.
Under “fitted relative affinity”, `GACGGACTGCTTTGCCTGACGTGCTAG` is recorded as -0.691 z-score.
`TTAGGTATCGGTTTCGGTTCGTGCTAG` — result for “fitted relative affinity”: 10.8 z-score.
`TCATCTTTCCCTGCCCCACTGTGCTAG` — result for “fitted relative affinity”: 1.47 z-score.
`CTTCTCCTCCAGGTTCTCTGAGTGCTA` — result for “fitted relative affinity”: 0.0337 z-score.
Under “fitted relative affinity”, `TTAGGACTACTTCTCCTTTAGTGCTAG` is recorded as -0.0113 z-score.
For `CTAGGTATCCTACTGCTTTAGTGCTAG`, “fitted relative affinity” read -0.0945 z-score.
`TTAGGGTTCCTACTGCTTTAGTGCTAG` — result for “fitted relative affinity”: 0.0283 z-score.
For `GACGGTTTCGGTACCGGGACGTGCTAG`, “fitted relative affinity” read 13.8 z-score.
Under “fitted relative affinity”, `GACGGTTTCGGGTATCGGTACGTGCTA` is recorded as 9.52 z-score.
`GACGGACTGGGTATTGGGACGTGCTAG`: “fitted relative affinity” -0.676 z-score.

Sample 5
Target: CREB3L2, bZIP domain (human)
Technique: DHFR protein complementation
Matrix: yeast
Notes: single substitutions, most at no-binding floor
Relative to: wild-type JUN-FOS pair
Reading: higher = stronger binding
Parent: JUN, bZIP domain (human); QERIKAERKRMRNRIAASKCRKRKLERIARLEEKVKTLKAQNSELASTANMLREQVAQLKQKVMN; partner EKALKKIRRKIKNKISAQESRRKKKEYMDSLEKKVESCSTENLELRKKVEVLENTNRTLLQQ
The binding fitness of `R53F` is reported as -1.34 natural log.
With `E33M` the binding fitness was -1.49 natural log.
With `T37L` the binding fitness was -1.3 natural log.
The binding fitness of `N42P` is reported as -1.53 natural log.
`A29T` has a binding fitness of -1.35 natural log.
For `Q55H`, the binding fitness was -1.58 natural log.
With `S47C` the binding fitness was -1.38 natural log.
With `I28N` the binding fitness was -1.54 natural log.
For `V56K`, the binding fitness was -1.48 natural log.
`K36M` has a binding fitness of -1.17 natural log.
`S47K` has a binding fitness of -1.21 natural log.
The binding fitness of `L31C` is reported as -1.49 natural log.
`A57Q` has a binding fitness of -1.47 natural log.
For `Q55E`, the binding fitness was -1.49 natural log.
`A46N` gave a binding fitness of -1.55 natural log.
The binding fitness of `A49G` is reported as -1.55 natural log.
For `L45H`, the binding fitness was -1.58 natural log.
With `A40S` the binding fitness was -1.44 natural log.
`M51K` has a binding fitness of -1.43 natural log.
With `K34C` the binding fitness was -1.32 natural log.
For `E32V`, the binding fitness was -1.47 natural log.
With `T48G` the binding fitness was -1.47 natural log.
For `A49V`, the binding fitness was -1.42 natural log.
For `A57V`, the binding fitness was -1.67 natural log.
For `T37R`, the binding fitness was -1.36 natural log.

A few entries again (sample 1):
The E-score of `TAGAACCA` is reported as -0.264.
`AACCGTGC` has an E-score of 0.13.
With `GGCCCAGA` the E-score was -0.0121.
`GCTAGGAC` has an E-score of -0.118.
The E-score of `CCTCATCC` is reported as -0.029.
`AACAGGGC` gave an E-score of 0.076.
With `CGGCCGAA` the E-score was 0.227.
The E-score of `GAACATAA` is reported as -0.0689.
`GAACAGCA` gave an E-score of 0.0451.
`CGGTACTC` has an E-score of -0.0217.
`CTACCGGA` gave an E-score of -0.0926.
